Measurements pooled from the literature.
Compare with care: the assays were run in different laboratories. Values joined by “and” are separate records of one study, mostly repeats; a detail may differ. ± gives the spread as reported.
Organism: Escherichia coli

| Structure (SMILES) | test | test system | setting | endpoint | value |
| --- | --- | --- | --- | --- | --- |
| OC[C@H]1O[C@@H]2O[C@H]3[C@H](O)[C@@H](O)[C@@H](O[C@H]4[C@H](O)[C@@H](O)[C@@H](O[C@H]5[C@H](O)[C@@H](O)[C@@H](O[C@H]6[C@H](O)[C@@H](O)[C@@H](O[C@H]7[C@H](O)[C@@H](O)[C@@H](O[C@H]8[C@H](O)[C@@H](O)[C@@H](O[C@H]1[C@H](O)[C@H]2O)O[C@@H]8CO)O[C@@H]7CO)O[C@@H]6CO)O[C@@H]5CO)O[C@@H]4CO)O[C@@H]3CO | LuxR reporter, antagonist | DH5α sensor strain | 100 µM, added: OHHL 200 nM | inhibition | -7 ± 2% |
| COC(=O)[C@H]1[C@H]2C[C@@H]3c4[nH]c5cc(OC)ccc5c4CCN3C[C@H]2C[C@@H](OC(=O)c2cc(OC)c(OC)c(OC)c2)[C@@H]1OC | checkerboard | tetracycline-resistant (pBR322) | 64 µM, added: tetracycline | tetracycline MIC | 450 µM |
| Nc1ccc2c(c1)B(O)OC2 |  | ATCC 25922 | 16xMIC, 1 h | post-antibiotic effect | 0.85 ± 0.04 h |
| C[C@@H](O)[C@H]1C(=O)N2C(C(=O)O)=C(SCCN=CN)C[C@H]12 |  | 2904, female ICR mice, peritonitis, liver | dose not given, 168 h | bacterial load | 4.1 log CFU and 3.67 log CFU and 5.15 log CFU and 3.52 log CFU and 5.4 log CFU and 4.32 log CFU |
| CC(=O)Oc1ccc(-c2c(C(N)=O)c(N)n(N)c(=O)c2C#N)cc1 | time-kill |  | 1 x MIC, 0 h | viable count | 6.51 log CFU/mL |
| CC(C)Oc1c(NC(=O)c2ccc(NC(=O)[C@H](CC(N)=O)NC(=O)c3ccc(NC(=O)c4ccc(C#N)cc4)cc3)cc2)ccc(C(=O)Nc2ccc(C(=O)O)cc2)c1O |  | ATCC 25922, neutropenic mouse thigh infection | iv, 50 mg/kg/day | bacterial load reduction below stasis | 2.44 log10 CFU/g |
| C#CCCCC(=O)NCC | LuxR reporter bioluminescence, antagonist | DH5α sensor strain | 200 µM, added: OHHL 200 nM | inhibition | 2 ± 4% |
| N#Cc1c(-c2ccc(OCc3ccccc3)cc2)c(C(N)=O)c(N)n(N)c1=O | time-kill |  | 1 x MIC, 90 min | viable count | 0 log CFU/mL |
| Cc1c(CN(C)C(=O)/C=C/c2cnc3c(c2)CC(NC(=O)OC(C)(C)C)C(=O)N3)oc2ccccc12 (stereo not drawn) | broth microdilution | AR-0058 |  | MIC | > 32 µg/mL |

Excerpt of the above:
| Structure (SMILES) | test | test system | setting | endpoint | value |
| --- | --- | --- | --- | --- | --- |
| N#Cc1c(-c2ccc(OCc3ccccc3)cc2)c(C(N)=O)c(N)n(N)c1=O | time-kill |  | 1 x MIC, 90 min | viable count | 0 log CFU/mL |
